# Published values pooled from the literature.
# Protocols differ between the studies behind these lines. Values joined by “and” are separate records of one study, mostly repeats; a detail may differ. ± gives the spread as reported.
SMILES,tested on,test,system,conditions,how to read,quantity,result
Cn1cnc2c(F)c(Nc3ccc(Br)cc3Cl)c(C(=O)NOCCO)cc21,,,"human, plasma","oral, dose not given, first-order absorption",,central volume of distribution,36.9 L
O=C(COc1ccc(Cl)cc1)NC12CC(c3nnc([C@H]4C[C@@H](OC(F)(F)F)C4)o3)(C1)C2,,,human both sexes,"oral, 260 mg once daily, 14 days",,participants with TEAE,85.7%
CC(C(=O)NCC(=O)NCC(CNC(=O)CNC(=O)C(C)N1CCN(CC(=O)[O-])CCN(CC(=O)[O-])CCN(CC(=O)[O-])CC1)(CNC(=O)CNC(=O)C(C)N1CCN(CC(=O)[O-])CCN(CC(=O)[O-])CCN(CC(=O)[O-])CC1)CNC(=O)CNC(=O)C(C)N1CCN(CC(=O)[O-])CCN(CC(=O)[O-])CCN(CC(=O)[O-])CC1)N1CCN(CC(=O)[O-])CCN(CC(=O)[O-])CCN(CC(=O)[O-])CC1.[Gd+3].[Gd+3].[Gd+3].[Gd+3] (stereo not shown),,ICP-MS,"cynomolgus monkey, feces",2 days post-injection,relative to: dose,cumulative fecal excretion,0.2%
FC(F)(F)c1ccc(CNc2ccc(Cc3c[nH]c4ncc(Cl)cc34)cn2)cn1,,measured: maculo-papular rash,"human, advanced solid tumours, non-TGCT cohort","oral, 1000 mg/day, grade 3 or higher",,treatment-related adverse events,0%
CCc1nc(C(N)=O)c(Nc2ccc(N3CCC(N4CCN(C)CC4)CC3)c(OC)c2)nc1NC1CCOCC1,,,"Japanese patients, plasma","oral, 40 mg, cycle 0 day -2, single dose, median",,AUC(0-24),492 ng·h/mL
CC(C)(C(=O)N1CCOc2c(C#N)cncc2C1)C(F)F,,measured: back pain,human,"oral, 40 mg, CSF pharmacokinetic cohort",,subjects with adverse event,33.3%
Oc1ccc(/C=C/c2cc(O)cc(O)c2)cc1,,,"rat, azoxymethane-injected, blood","in vivo, 100 mg/kg, at sacrifice",,I-BIL level,0.03 mg/dL and 0.04 mg/dL
COc1cc(N2CCC3(CCN(C)CC3)CC2)ccc1Nc1ncc(Cl)c(Nc2ccccc2P(C)(C)=O)n1,,population PK model,human,"oral, final model without outliers, unit not given",relative to: fasting,food effect on Ka,0.627
N#C[C@@]1(c2ccc3c(N)ncnn23)O[C@H](CO)[C@@H](O)[C@H]1O,,plasma protein binding,rat plasma,100 µM,,bound fraction,0.0655
NC/C(=C\F)COc1cccc(Cn2c(=S)[nH]c(=O)c3[nH]cnc32)c1,,,human liver microsomes,"1 µM, 1 h",,remaining compound,75%
CCN1/C(=C/C(C)=O)Sc2ccc(F)cc21,,,cynomolgus monkey,"oral, 100 mg/kg, 4 h post-dose",,systolic blood pressure,116 ± 4 mmHg
COc1cc2c(c(OC)c1OC)C(=O)c1c(cc(C)c(O)c1OC)C2=O,HK-2 co-cultured with HepaRG,MTT,,"133.33 µM, 48 h",relative to: untreated control,viability,11.2 ± 5.93%
CC(C)[C@@H](CN1CC[C@@](C)(c2cccc(O)c2)[C@@H](C)C1)NC(=O)[C@H]1Cc2ccc(O)cc2CN1,,,"rat, Sprague-Dawley, plasma","ip, 5 to 10 mg/kg",,dose-normalised AUC(0-t),322 ± 103 ng·h/mL
CCCCCCCCCCCCCCCC(=O)N[C@@H](CCC(=O)NCCCC[C@@H]1NC(=O)[C@H]([C@@H](C)CC)NC(=O)[C@@H](NC(=O)[C@@H]2CCCN2C(=O)[C@H](Cc2ccccc2)NC(=O)[C@H](Cc2c[nH]cn2)NC(=O)[C@@H](NC(=O)[C@H](CC(=O)O)NC(=O)CC(C)C)[C@@H](C)O)CSSC[C@@H](C(=O)N[C@@H](CCCCN)C(N)=O)NC(=O)CNC(=O)[C@H](CCCCN)NC(=O)[C@H](CO)NC(=O)[C@H](CCCNC(=N)N)NC(=O)[C@@H]2CCCN2C(=O)[C@H](CCC(=O)O)NC(=O)[C@H](Cc2ccccc2)NC1=O)C(=O)O,,,"healthy volunteers, plasma","subcutaneous, 10 mg single, lyophilised formulation",,Vz/F,18.2 ± 7.54 L
COc1c(O)c(C)cc2c1C(=O)c1c(ccc(O)c1O)C2=O,HK-2 co-cultured with HepaRG,MTT,,"133.33 µM, 48 h",relative to: untreated control,viability,73.7 ± 12.1%
CC[C@H](C)[C@H](NC(C)=O)C(=O)N[C@H]1CSSC[C@@H](C(=O)N[C@H](C(N)=O)[C@@H](C)O)NC(=O)[C@H](CCCNC(=N)N)NC(=O)[C@H](Cc2c[nH]cn2)NC(=O)[C@H](Cc2cccc3ccccc23)NC(=O)CNC(=O)[C@H](Cc2c[nH]c3ccccc23)NC(=O)[C@H](CC(=O)O)NC(=O)[C@H](CCC(N)=O)NC(=O)[C@H](Cc2c[nH]c3ccccc23)NC(=O)[C@H](C(C)C)NC1=O,,"isocratic RP-HPLC, C18","32% acetonitrile, phosphate pH 7.4, 1% TFA",25 °C,,retention factor,5.002 ± 0.006
COc1cccc(OC)c1-c1cc(C(=O)NC2(C(=O)O)C3CC4CC(C3)CC2C4)nn1-c1ccc(C(=O)N(C)CCCN(C)CCCN(C)C(=O)CN2CCN(CC(=O)[O-])CCN(CC(=O)[O-])CCN(CC(=O)[O-])CC2)cc1C(C)C.[177Lu+3] (stereo not shown),,,"mouse, HT-29 xenograft","4 h post injection, biodistribution",relative to: tumour over kidney uptake,tumour-to-kidney ratio,5.44
Cc1ccc([C@@H]2O[C@H](CO)[C@@H](O)[C@H](O)[C@H]2O)cc1Cc1ccc(-c2ccc(F)cc2)s1,,,Japanese type 2 diabetes patients,"400 mg, day 4, 24 h urine collection",relative to: baseline,urinary sodium excretion change,1.85 mEq
CC[C@@H]([C@H](C)O)n1ncn(-c2ccc(N3CCN(c4ccc(OC[C@@H]5CO[C@@](Cn6cncn6)(c6ccc(F)cc6F)C5)cc4)CC3)cc2)c1=O,,,"Sprague-Dawley rats, plasma","oral, 40 mg/kg, incomplete elimination, together with: zanubrutinib 16 mg/kg",,t1/2,11.4 ± 6.51 h

# For quick reference, copied from above:
SMILES,tested on,test,system,conditions,how to read,quantity,result
CCc1nc(C(N)=O)c(Nc2ccc(N3CCC(N4CCN(C)CC4)CC3)c(OC)c2)nc1NC1CCOCC1,,,"Japanese patients, plasma","oral, 40 mg, cycle 0 day -2, single dose, median",,AUC(0-24),492 ng·h/mL
CC(C)(C(=O)N1CCOc2c(C#N)cncc2C1)C(F)F,,measured: back pain,human,"oral, 40 mg, CSF pharmacokinetic cohort",,subjects with adverse event,33.3%
Oc1ccc(/C=C/c2cc(O)cc(O)c2)cc1,,,"rat, azoxymethane-injected, blood","in vivo, 100 mg/kg, at sacrifice",,I-BIL level,0.03 mg/dL and 0.04 mg/dL
